Published values gathered from unrelated publications.
Protocols differ between the studies behind these lines. Several values in a cell are separate wells, animals, samples, runs or records. ± gives the spread as reported.

Structure (SMILES) = N.N.[Cl][Pt][Cl]; system = mice, serum; conditions = dose not given; endpoint = ALT; value = 50 IU/L
Structure (SMILES) = [O-][S+]1CCc2nc(N3CCC(c4ncc(Cl)cn4)CC3)nc(NC3(CO)CCC3)c21 (stereo not shown); assay = measured: Constipation; system = healthy male humans; conditions = 6 mg twice daily; endpoint = adverse event incidence; value = 0%
Structure (SMILES) = CC[C@H](C)[C@H](NC(=O)[C@H](Cc1ccccc1)NC(=O)[C@H](CCC(=O)O)NC(=O)[C@H](CCCNC(=N)N)NC(=O)[C@H](C)NC(=O)[C@H](C)NC(=O)[C@H](CCC(N)=O)NC(=O)[C@H](CCC(=O)O)NC(=O)[C@H](CCC(=O)O)NC(=O)[C@H](CC(C)C)NC(=O)[C@H](Cc1ccc(O)cc1)NC(=O)[C@H](CO)NC(=O)[C@H](CO)NC(=O)[C@@H](NC(=O)[C@H](CC(=O)O)NC(=O)[C@H](CO)NC(=O)[C@@H](NC(=O)[C@H](Cc1ccccc1)NC(=O)[C@@H](NC(=O)CNC(=O)[C@H](CCC(=O)O)NC(=O)[C@H](C)NC(=O)CCc1cnc[nH]1)[C@@H](C)O)[C@@H](C)O)C(C)C)C(=O)N[C@@H](C)C(=O)N[C@@H](Cc1c[nH]c2ccccc12)C(=O)N[C@@H](CC(C)C)C(=O)N[C@H](C(=O)N[C@@H](CCCNC(=N)N)C(=O)NCC(=O)N[C@@H](CCCNC(=N)N)C(=O)N[C@@H](CCCCNC(=O)COCCOCCNC(=O)COCCOCCNC(=O)CC[C@H](NC(=O)CCCCCCCCCCCCCCCCC(=O)O)C(=O)O)C(=O)NCC(=O)NCC(=O)N[C@@H](CO)C(=O)N[C@@H](CCCCNC(=O)[C@H](CCCCNc1c(NCCCCCN(O)C(=O)CCC(=O)NCCCCCN(O)C(=O)CCC(=O)NCCCCCN(O)C(C)=O)c(=O)c1=O)Nc1c(NCCCCCN(O)C(=O)CCC(=O)NCCCCCN(O)C(=O)CCC(=O)NCCCCCN(O)C(C)=O)c(=O)c1=O)C(=O)O)C(C)C [zirconium-89 labelled]; assay = ex vivo gamma counting; system = male Sprague-Dawley rats, blood; conditions = intravenous, 1 nmol, 24 h; endpoint = tissue uptake; value = 0.363 %ID/g
Structure (SMILES) = CCc1ccc(CC/C=C/c2ccc3c(c2)C(=O)CC3)cc1; system = Sprague-Dawley rat, male; conditions = oral, 120 mg/kg/day, 14 days; endpoint = ALP serum activity; value = 269 U/L
Structure (SMILES) = COc1ccc(CCC2CCCC(CCc3ccc(OC)cc3)N2C[C@@H](O)CO)cc1.Cl (stereo in doubt); system = rabbit Purkinje fibres; conditions = 0.3 µM, cycle length 0.5 s; how to read = relative to: baseline; endpoint = action potential amplitude change; value = -1.6 ± 5.8 mV
Structure (SMILES) = N#Cc1ccc(COc2cccc(C(=O)Nc3ccc4c(c3)B(O)OC4)c2)cc1; assay = PAMPA; system = pre-coated trilayer membrane; conditions = 200 µM, 5 h, pH 7.4, donor plate, PBS; endpoint = donor concentration; value = 170 ± 16.4 µM
Structure (SMILES) = COc1ccc2nc3cc(Cl)ccc3c(Nc3cc(CN4CCCC4)c(O)c(CN4CCCC4)c3)c2n1; system = mouse, blood; conditions = intraperitoneal, 57 mg/kg; endpoint = red cell distribution width (CV); value = 13.9%
Structure (SMILES) = CN(C)CCCN1c2ccccc2Sc2ccc(Cl)cc21; system = human liver microsomes; conditions = concentration not given; endpoint = microsomal binding; value = 92.2%
Structure (SMILES) = O=S(=O)(Nc1ccccc1)c1ccc(NC(=S)Nc2ccccc2)cc1; system = female mice, heart; conditions = oral, 5 mg/kg daily 14 days; how to read = relative to: body weight; endpoint = relative organ weight; value = 0.48%
Structure (SMILES) = Cn1cc(-c2nc(N[C@@H]3CCCC[C@@H]3N)c(F)c3c2C(=O)NC3)cn1; assay = epistaxis; system = patients with relapsed or refractory AML; conditions = oral, 160 mg once daily; endpoint = adverse events; value = 11%
Structure (SMILES) = CO[C@H]1C[C@@H]2CC[C@@H](C)[C@@](O)(O2)C(=O)C(=O)N2CCCC[C@H]2C(=O)O[C@H]([C@H](C)C[C@@H]2CC[C@@H](OC(=O)NCCOCCOCCOCCOCCOCCOCCOCCOCCC(=O)N3CCc4cc(Cn5nc(-c6ccc7oc(N)nc7c6)c6c(N)ncnc65)ccc4C3)[C@H](OC)C2)C[C@@H](O)[C@H](C)/C=C(\C)[C@@H](O)[C@@H](OC)C(=O)[C@H](C)C[C@H](C)/C=C/C=C/C=C/1C; assay = dose-escalation trial; system = patients with advanced solid tumours; conditions = intravenous, 1.6 mg/3 mg weekly, grade ≥3; endpoint = AEs leading to dose reduction; value = 0%
Structure (SMILES) = CCC[C@H]1CC[C@H](c2ccc(-c3ccc(F)cc3)cc2)CC1; system = rat, placenta; conditions = 5000 ng/mL in perfusate, high dose, mixture of 21 LCMs; endpoint = placental accumulation; value = 332 ± 458 ng/g
Structure (SMILES) = O=S(=O)([O-])C(F)(F)C(F)(F)C(F)(F)C(F)(F)C(F)(F)C(F)(F)C(F)(F)C(F)(F)F.[K+]; assay = RT-qPCR, measured: Cyp3a11; system = pair-fed mice, liver; conditions = dose not given; endpoint = mRNA level; value = increased
Structure (SMILES) = C[C@]1(CO)Cc2ncn(-c3ccc(C#N)c(Cl)c3)c2C(=O)O1; system = human, plasma; conditions = 20 mg once daily, fasted; endpoint = half-life at steady state; value = 5.2 h
Structure (SMILES) = O=C1Nc2cc3[nH]nc(-c4ccncc4)c3cc2CN1Cc1ccccc1; assay = measured: decreased appetite; system = patients with advanced solid tumours; conditions = intravenous, dose not given, both schedules pooled; endpoint = patients with TEAE; value = 27%
Structure (SMILES) = CN1CCN(S(=O)(=O)c2cc([N+](=O)[O-])ccc2N(CCOS(C)(=O)=O)CCOS(C)(=O)=O)CC1; system = naive NOD/SCID mice, pooled blood; conditions = intraperitoneal, 25 mg/kg, week 4; endpoint = calcium; value = 2.7 mmol/L
Structure (SMILES) = COc1ncccc1-c1cnn2ccc(N3CCN(C(=O)OC(C)C)CC3)nc12; system = mouse nerve ligation model, plasma; conditions = oral, 3 mg/kg, 30 min after last dose, repeat dosing day 4; endpoint = drug concentration; value = 760 nM
Structure (SMILES) = Cn1ncc(-c2nc(N[C@H]3CC[C@H](N)CC3)ncc2Cl)c1CC1CC1; assay = measured: emesis any grade; system = human patients phase I; conditions = dose not given; endpoint = adverse event incidence; value = 63%
Structure (SMILES) = CCCCCOc1ccc(-c2ccc(-c3ccc(C(=O)N[C@H]4C[C@@H](O)[C@@H](OCC[N+](C)(C)C)NC(=O)[C@@H]5[C@@H](O)[C@@H](C)CN5C(=O)[C@H]([C@@H](C)O)NC(=O)[C@H]([C@H](O)[C@@H](O)c5ccc(O)cc5)NC(=O)[C@@H]5C[C@@H](O)CN5C(=O)[C@H]([C@@H](C)O)NC4=O)cc3)cc2)cc1; system = healthy male humans, blood, plasma; conditions = intravenous, 400 mg single, day 60; endpoint = blood-to-plasma radioactivity ratio; value = 0.86 to 1.02
Structure (SMILES) = C=CCn1c(=O)c2cnc(Nc3ccc(N4CCN(C)CC4)cc3)nc2n1-c1ccc2c(n1)[C@@](O)(CC)CC2; system = mouse, CDX tumour models, body weight; conditions = 80 mg/kg once daily; endpoint = tolerability; value = not toxic
Structure (SMILES) = CC(C)[C@@H]1NC(=O)CNC(=O)[C@H](CC(N)=O)NC(=O)[C@H](CCCNC(=N)N)NC(=O)[C@H](Cc2ccc(O)cc2)NC(=O)[C@H](C(C)C)NC(=O)[C@@H](NC(=O)[C@@H](NC(=O)[C@H](CC(N)=O)NC(=O)[C@H](Cc2c[nH]c3ccccc23)NC(=O)[C@H](C)NC(=O)[C@H](Cc2ccccc2)NC(=O)CN)C(C)C)CSSC[C@@H](C(=O)N[C@@H](Cc2cnc[nH]2)C(=O)N[C@@H](CCCNC(=N)N)C(=O)N[C@@H](CCCNC(=N)N)C(=O)N[C@@H](C)C(=O)N[C@@H](CC(N)=O)C(N)=O)NC(=O)[C@H](C(C)C)NC(=O)[C@H](CCCNC(=N)N)NC1=O; system = ICR mice, serum; conditions = intraductal mammary, 10 mg/kg, day 5; endpoint = blood urea nitrogen; value = 10.2 ± 0.94 mmol/L
Structure (SMILES) = CC(C)(C)c1cc(-n2nc3ccccc3n2)c(O)c(C(C)(C)C)c1; assay = exposure assessment; system = human, age 6-11 years; conditions = sunscreen; endpoint = mean daily dermal uptake; value = 1.6 ng/kg body weight/day
Structure (SMILES) = Cn1cncc1-c1c(F)cncc1NC(=O)c1c(N)nn2cc(F)cnc12; system = human patients; conditions = oral, 130 mg once daily, 21 days; endpoint = dose-limiting toxicity upper GI haemorrhage; value = 0%
Structure (SMILES) = Nc1nc2cc(-c3ccc4ncc(C(=O)N5CCOCC5)n4c3)ccc2o1; assay = all-cause decreased appetite, all grades; system = patients with advanced solid tumours; conditions = dose not given; endpoint = patients with adverse events; value = 34%
Structure (SMILES) = CCOc1ccc(NC(=O)O[C@@H](Cn2nc(C(C)C)cc2C(C)C)C(C)C)cc1; system = zebrafish larvae, HEPES-buffered medium; conditions = immersion, up to 100 µM, 24 h, pH 7; endpoint = larval viability; value = 100%
Structure (SMILES) = C[C@H]1COCCN1c1nc(NCc2cccnc2C(F)(F)F)c2cccnc2n1; system = anaesthetized rat; conditions = intravenous, 3 mg/kg; how to read = relative to: control; endpoint = QRS change; value = 5.6%
Structure (SMILES) = C1=Cc2nc1cc1ccc([n-]1)c(C1CC1)c1nc(cc3ccc([n-]3)c2C2CC2)C=C1.CC(=O)[O-].[Mn+3]; assay = LC-MS/MS; system = Sprague-Dawley rat, plasma; conditions = oral gavage, dose not given, 240 min, individual rat Rat2; endpoint = plasma concentration; value = 202 ng/mL
Structure (SMILES) = O=C(Nc1ccccc1)C1CCN(C(=O)Oc2cccnc2)CC1; assay = measured: musculoskeletal disorders; system = healthy women; conditions = oral, 20 mg, 7 days; endpoint = subjects with adverse event; value = 21.4%
Structure (SMILES) = O=C(O)CCCOc1ccc(F)cc1-c1cc(-c2ccccc2C(F)(F)F)n(-c2ccccc2)n1; system = female Crl:CD(SD) rats, lungs; conditions = intravenous, 25 µg/kg, 1 d; endpoint = relative organ weight; value = 0.46 ± 0.03 g%
Structure (SMILES) = Cc1ccc2ccccc2c1; assay = metabolism; system = pooled human liver microsomes; conditions = pH 7.4; endpoint = Km; value = 2.9 µM and 2.88 µM
Structure (SMILES) = CC1(C)C(C=C(Cl)Cl)C1C(=O)OC(C#N)c1ccc(F)c(Oc2ccccc2)c1 (stereo not shown); assay = measured: CYP2C9; system = human, age 6 months, recombinant human CYP2C9; conditions = 0.1 µM; endpoint = enzyme contribution to clearance; value = 2.05%
Structure (SMILES) = COc1cc2c(Oc3ccc4[nH]c(C)cc4c3F)ccnc2cc1OCC1(N)CC1; system = paediatric recurrent refractory sarcoma; conditions = 10 mg; endpoint = grade 1 or 2 weight loss; value = 25%
Structure (SMILES) = CCCCCOc1ccc(-c2ccc(-c3ccc(C(=O)N[C@H]4C[C@@H](O)[C@@H](OCC[N+](C)(C)C)NC(=O)[C@@H]5[C@@H](O)[C@@H](C)CN5C(=O)[C@H]([C@@H](C)O)NC(=O)[C@H]([C@H](O)[C@@H](O)c5ccc(O)cc5)NC(=O)[C@@H]5C[C@@H](O)CN5C(=O)[C@H]([C@@H](C)O)NC4=O)cc3)cc2)cc1; system = adult ICU patients, mITT, serum; conditions = dose not given, day 14; endpoint = aspartate aminotransferase; value = 20.4 U/L
Structure (SMILES) = Clc1ccc(-c2ccccc2)cc1; system = Sprague-Dawley rats, female, serum; conditions = inhalation, 23 µg/rat, 1 h after exposure; endpoint = albumin; value = 3 ± 0.2 g/dL
